{"data": "Measured values of several laboratories", "cell line": "RAW264.7", "note": "Protocols differ between the studies behind these lines. ± marks the error that the study gave."}
{"SMILES": "COc1ccc2c(oc3c4ccc(O)cc4oc(=O)c23)c1CC=C(C)C", "test": "nitric oxide production", "setting": "up to 100 µM, with: LPS", "IC50": "inactive"}
{"SMILES": "C[C@@H]1C(=O)CC[C@@H]2[C@]1(C)CC[C@H]1[C@@]2(C)CC[C@@]2(C)[C@@H]3CC(C)(C)CC[C@]3(C)CC[C@]12C", "test": "NO release, inhibitor, Griess", "setting": "LPS-stimulated", "IC50": "> 100 µM"}
{"SMILES": "CC1C(O)CC2(CO)CCC3(C)C(=CCC4C(C)(CCC(=O)O)C(C(C)(O)CO)CCC43C)C2C1C (stereo not drawn)", "test": "NO production, Griess", "setting": "24 h, pre-treatment before HMGB1, with: HMGB1 0.5 µg/mL", "IC50": "47.2 ± 7.62 µM"}
{"SMILES": "COc1ccc2c(c1CC=C(C)C)O[C@H]1c3cc(CC=C(C)C)c(O)cc3OC[C@@H]21", "test": "nitric oxide production", "setting": "up to 100 µM, with: LPS", "IC50": "inactive"}
{"SMILES": "CC(C)=CCc1cc(-c2coc3cc(O)c(CC=C(C)C)c(O)c3c2=O)ccc1O", "test": "cell growth or viability, MTT", "IC50": "110 µM"}
{"SMILES": "CCn1cc(/C=C/c2sc3ccccc3[n+]2CC)c2ccccc21", "test": "cell growth or viability, MTT", "setting": "24 h", "IC50": "> 20 µM"}
{"SMILES": "CCCc1c(-c2ccc(O)cc2)nn(-c2ccc(O)cc2)c1-c1ccc(OCCN2CCCCC2)cc1", "test": "cell growth or viability, resazurin", "IC50": "29.3 µM"}
{"SMILES": "Oc1ccc(-c2cc(-c3ccc(OCCN4CCCCC4)cc3)n(-c3ccc(O)cc3)n2)cc1", "test": "TNF-alpha production, inhibitor", "setting": "with: CpG-DNA", "IC50": "1.03 ± 0.8 µM"}
{"SMILES": "CCCCn1cc(C(=O)O)c(=O)c2cc(F)c(N)c([N+](=O)[O-])c21", "test": "NO release, inhibitor, Griess", "setting": "LPS-stimulated", "IC50": "71.2 µM"}
{"SMILES": "CC(C)C1=C(O)C(=O)C2=C(C=C[C@H]3C(C)(C)CCC[C@]23C)C1=O", "test": "NO release, inhibitor", "setting": "24 h, LPS-stimulated", "IC50": "> 159 µM"}
{"SMILES": "C=CC(=O)Nc1ccc2c(c1)cc(C(=O)Nc1cccc(-c3cn4c(C(=O)OCC)csc4n3)c1)n2Cc1ccc(C(F)(F)F)cc1", "test": "NO release, inhibitor, Griess", "setting": "24 h, LPS-stimulated", "IC50": "61.5 µM"}
{"SMILES": "COc1cc2c(cc1O)[C@]1(O)C(=O)c3c(O)cc4c(c3O[C@@H]1CO2)C=CC(C)(C)O4", "test": "cell growth or viability, MTT", "IC50": "45.3 µM"}
{"SMILES": "CC(=O)O[C@H]1CC[C@]2(C)[C@H]3CC=C4[C@@H]5CC(C)(C)CC[C@]5(CO)CC[C@@]4(C)[C@]3(C)CC[C@H]2C1(C)C", "test": "NO release, inhibitor, Griess", "setting": "LPS-stimulated", "IC50": "> 100 µM"}
{"SMILES": "COC(=O)C1=COC(OC2OC(CO)C(O)C(O)C2O)C2C1C(OC(C)=O)CC2(C)O (stereo not drawn)", "test": "NO release, inhibitor, Griess", "setting": "LPS-stimulated", "IC50": "7.6 µM"}
{"SMILES": "CCC(=O)NCc1ccccc1", "test": "NO release, inhibitor, Griess", "setting": "24 h, LPS-stimulated", "IC50": "> 200 µM"}
{"SMILES": "CCCCn1cc(C(=O)O)c(=O)c2cc(F)c3[nH]nnc3c21", "test": "NO release, inhibitor, Griess", "setting": "LPS-stimulated", "IC50": "2160 µM"}
{"SMILES": "CC(C)(O)[C@@H]1CC[C@](C)([C@H]2CC[C@]3(C)[C@@H]2CC[C@@H]2[C@@]4(C)CCC(=O)C(C)(C)[C@@H]4CC[C@]23C)O1", "test": "NO release, inhibitor, Griess", "setting": "LPS-stimulated", "IC50": "> 100 µM"}
{"SMILES": "Oc1ccc(-c2cc(-c3ccc(OCCCN4CCCCC4)cc3)n(-c3ccc(O)cc3)n2)cc1", "test": "cell growth or viability, resazurin", "IC50": "12.4 µM"}
{"SMILES": "CC/C=C\\C/C=C\\C/C=C\\CCCCCCCC(=O)OC[C@H](CO[C@@H]1O[C@H](CO)[C@H](O)[C@H](O)[C@H]1O)OC(=O)CCCCCCC/C=C\\C/C=C\\C/C=C\\CC", "test": "NO release, inhibitor, Griess", "setting": "20 h, LPS-stimulated", "IC50": "7.7 µM"}
{"SMILES": "CCOC(=O)c1csc2nc(-c3cccc(NC(=O)c4cc5cc(NC(=O)c6ccco6)ccc5n4Cc4ccc(C(F)(F)F)cc4)c3)cn12", "test": "NO release, inhibitor, Griess", "setting": "24 h, LPS-stimulated", "IC50": "20 µM"}
{"SMILES": "COc1c(CC=C(C)C)c(O)cc2c1-c1oc3c(CC=C(C)C)c(O)ccc3c1CO2", "test": "nitric oxide production", "setting": "up to 100 µM, with: LPS", "IC50": "inactive"}
{"SMILES": "O=C1CCNCN1Cc1ccccc1", "test": "NO release, inhibitor, Griess", "setting": "24 h, LPS-stimulated", "IC50": "186 µM"}
{"SMILES": "CCN(CC)c1nc2oc3ccccc3c(=O)c2s1", "test": "IL-1β release, inhibitor, ELISA", "setting": "48 h, LPS-stimulated", "IC50": "17 µM"}
{"SMILES": "CC(=O)O[C@H]1C=C([C@H](C)[C@H]2CC(C)=C(C)C(=O)O2)[C@@]2(C)CC[C@H]3[C@@H](C[C@@H](O)[C@@]4(O)CC=CC(=O)[C@]34C)[C@]12O", "test": "NO release, inhibitor, Griess", "setting": "LPS-stimulated", "IC50": "31.2 µM"}
{"SMILES": "CC(C)C1=C(OC(=O)C(C)(C)C)C(=O)C2=C(C=C[C@H]3C(C)(C)CCC[C@]23C)C1=O", "test": "NO release, inhibitor", "setting": "24 h, LPS-stimulated", "IC50": "4.19 µM"}
{"SMILES": "CC/C=C\\C/C=C\\C/C=C\\CCCCCCCC(=O)OC[C@@H](O)CO[C@@H]1O[C@H](CO)[C@H](O)[C@H](O)[C@H]1O", "test": "NO release, inhibitor, Griess", "setting": "20 h, LPS-stimulated", "IC50": "59.4 µM"}
{"SMILES": "COc1ccc(CCNC(=O)/C=C/c2ccc(O)c(O)c2)cc1OC", "test": "NO release, inhibitor, Griess", "setting": "24 h, LPS-stimulated", "IC50": "5.58 µM"}
{"SMILES": "CC(C)=CCc1cc2c(cc1O)OCc1c-2oc2c(CC=C(C)C)c(O)ccc12", "test": "nitric oxide production", "setting": "up to 100 µM, with: LPS", "IC50": "inactive"}
{"SMILES": "COc1ccc(CCNC(=O)CCc2ccc(O)c(O)c2)cc1OC", "test": "NO release, inhibitor, Griess", "setting": "24 h, LPS-stimulated", "IC50": "> 10 µM"}
{"SMILES": "O=c1c2cc(Cl)ccc2oc2nc(N3CCCCC3)sc12", "test": "IL-1β release, inhibitor, ELISA", "setting": "48 h, LPS-stimulated", "IC50": "35.4 µM"}
{"SMILES": "CC(C)=CCc1cc(-c2coc3cc(O)c(CC=C(C)C)c(O)c3c2=O)ccc1O", "test": "nitric oxide production", "setting": "up to 100 µM, with: LPS", "IC50": "inactive"}
{"SMILES": "CCOC(=O)c1csc2nc(-c3cccc(NC(=O)c4cc5cc(NC(=O)C(C)Cl)ccc5n4Cc4ccc(C(F)(F)F)cc4)c3)cn12 (stereo not drawn)", "test": "NO release, inhibitor, Griess", "setting": "24 h, LPS-stimulated", "IC50": "11 µM"}
{"SMILES": "O=c1c2ccccc2oc2nc(N3CCCCC3)sc12", "test": "IL-1β release, inhibitor, ELISA", "setting": "48 h, LPS-stimulated", "IC50": "9.64 µM"}
{"SMILES": "CC1=C(C)C(=O)O[C@@H]([C@@H](C)C2=C[C@H](O)[C@]3(O)[C@@H]4C[C@@H](O)[C@@]5(O)CC=CC(=O)[C@]5(C)[C@H]4CC[C@]23C)C1", "test": "NO release, inhibitor, Griess", "setting": "LPS-stimulated", "IC50": "34.4 µM"}
{"SMILES": "COc1c2c(cc3c1[C@@H]1Oc4c(ccc(O)c4CC=C(C)C)[C@@H]1CO3)OC(C)(C)C=C2", "test": "nitric oxide production", "setting": "up to 100 µM, with: LPS", "IC50": "inactive"}
{"SMILES": "CN(C)C1CCN(c2nc3oc4ccccc4c(=O)c3s2)CC1", "test": "IL-6 release, inhibitor, ELISA", "setting": "48 h, LPS-stimulated", "IC50": "12.6 µM"}
{"note": "A few entries again:"}
{"SMILES": "COc1ccc2c(oc3c4ccc(O)cc4oc(=O)c23)c1CC=C(C)C", "test": "nitric oxide production", "setting": "up to 100 µM, with: LPS", "IC50": "inactive"}
{"SMILES": "O=C1CCNCN1Cc1ccccc1", "test": "NO release, inhibitor, Griess", "setting": "24 h, LPS-stimulated", "IC50": "186 µM"}
{"SMILES": "CC(=O)O[C@H]1CC[C@]2(C)[C@H]3CC=C4[C@@H]5CC(C)(C)CC[C@]5(CO)CC[C@@]4(C)[C@]3(C)CC[C@H]2C1(C)C", "test": "NO release, inhibitor, Griess", "setting": "LPS-stimulated", "IC50": "> 100 µM"}
{"SMILES": "CCCCn1cc(C(=O)O)c(=O)c2cc(F)c(N)c([N+](=O)[O-])c21", "test": "NO release, inhibitor, Griess", "setting": "LPS-stimulated", "IC50": "71.2 µM"}
{"SMILES": "COc1ccc(CCNC(=O)/C=C/c2ccc(O)c(O)c2)cc1OC", "test": "NO release, inhibitor, Griess", "setting": "24 h, LPS-stimulated", "IC50": "5.58 µM"}
